Assay results pooled from the literature.
Lines come from different studies, so protocols differ.

`CCC[C@H](N[C@@H](C)C(=O)N1[C@H](C(=O)O)C[C@@H]2CCCC[C@@H]21)C(=O)O` gave a stability of 90.5% (human whole blood; 16.0 ng/mL, 30 h, 8 °C, autosampler, high QC).
`[Cl-].c1csc([I+]c2cccs2)c1` gave a stability time of greater than 24 h (mouse plasma extract; 4 °C).
For `Cc1c2c(c(O)c3c(OC(=O)c4cccnc4)cccc13)C(=O)[C@]1(O)C(=O)C(C(N)=O)=C(O)[C@@H](N(C)C)[C@@H]1C2`, the stability time was no less than 16 h (LC-MS; Escherichia coli cell lysate).
For `O=C(O)CN1Cc2cccc(n2)CN(CC(=O)O)Cc2cccc(n2)C1`, “stability constant log β” read 7.65 (voltammetry, Nernst equation; Mn(III) complex).
`C[C@@H](Oc1ccc(S(C)(=O)=O)cc1C(=O)N1C[C@@H]2C[C@]2(c2cc(C(F)(F)F)on2)C1)C(F)(F)F` gave a stability period of 953 days (human K2-EDTA plasma; 20 °C).
Under “stability relative error”, `C1=C/COCc2cc(ccc2OCCN2CCCC2)Nc2nccc(n2)-c2cccc(c2)COC/1` is recorded as 0.77% (rat plasma; 600 ng/mL, three freeze-thaw cycles; baseline: nominal concentration).
`O=C(NCCN1CCCC1)c1cc(-c2ccc(CN3CCOCC3)cc2)nc2ccc(F)cc12` has a stability duration of no more than 1 h (human whole blood; ambient, citric acid buffer 100 mM, 1/1 v/v).
`CCN(CC)Cc1ccc2cc(COC(=O)Nc3ccc(C(=O)NO)cc3)ccc2c1`: “stability relative error” 105% (rat plasma; 3200 ng/mL, 3 h, room temperature; baseline: nominal concentration).
`COC(=O)/C=C/c1cc(C(=O)NCc2ccc(C)cc2)cc(-c2ccc3ncnn3c2)c1` — result for stability: “stable” (simulated intestinal fluid; 2 h).
The stability of `O=C(N/N=C/c1ccccc1O)c1ccncc1` is reported as 94.5% (ADS buffer; 4 µM, 7 days, -80 °C, long-term storage).
